Published values of several laboratories.
Parts stem from different laboratories: compare values within a part only. Positions count from the first letter of the parent shown.

Series 1 — technique: protein binding microarray; molecule type: double-stranded DNA, one strand shown; matrix: in vitro; concentration: not given; reference: not given; reading: higher = stronger binding; quantity: E-score
Target: Histone acetyltransferase KAT6A, both winged helices, GST fusion (KAT6A, Homo sapiens, UniProt Q92794, residues 1-181)
Setting: 8-mer, flanks averaged, mean of 2 arrays, mostly near background
Construct (chain): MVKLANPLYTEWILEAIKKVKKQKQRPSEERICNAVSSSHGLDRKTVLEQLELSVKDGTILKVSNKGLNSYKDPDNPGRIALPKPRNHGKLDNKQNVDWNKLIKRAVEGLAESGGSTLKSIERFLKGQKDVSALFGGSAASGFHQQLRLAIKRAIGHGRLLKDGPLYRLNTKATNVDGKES
CGTTAGCA: 0.0411
CGAGTAAG: 0.036
CTTGTTAC: -0.0483
AGAGTCAT: -0.151
AAAATTAC: -0.0794
ACATCGTG: -0.0762
CATGTCGA: -0.0596
CCCCGTAC: 0.227
GTGGACAC: -0.00656
AGTTCATC: -0.057
AAACTAAC: -0.0543
CGCTAAAC: 0.229
CGTCCGTA: 0.254
GCACTCCC: -0.0263
ATCGATCA: -0.0397
GCCTAGTA: -0.0556
CATAACAA: -0.0223
CCCCGGAG: 0.0498
ATCAATGG: -0.188
CCTCGAAA: -0.0384
AGCAAACA: -0.151
ACTACAAC: -0.0523
AAGTAAAA: -0.122
AACGTAGC: -0.0255
AATGTTTG: -0.0537

Series 2 — technique: RNA Bind-n-Seq; molecule type: RNA; matrix: in vitro; concentration: 365 nM; reference: no-protein control; reading: higher = stronger binding; quantity: RBNS enrichment (R)
Target: RNA binding protein fox-1 homolog 2, RRM domain, GST-SBP tag (RBFOX2, Homo sapiens, UniProt O43251-10, residues 100-194)
Setting: natural RNA segment, single round, ends assumed
Constant ends, left off below: GGGAGUUCUACAGUCCGACGAUC … UGGAAUUCUCGGGUGCCAA
Target sequence (chain): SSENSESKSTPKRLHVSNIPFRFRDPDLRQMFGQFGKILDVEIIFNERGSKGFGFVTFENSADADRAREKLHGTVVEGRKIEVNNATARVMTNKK
GCACAGAGAAGUGGCCACAGCCUUCCCACCCCACGACCAGAGACUGGCCUGGCCUCACUGCUUUCAAGGACACAGAUGUCUGCUACCCCUCUUGAACUUGGGUGGGGAAC: 0.324
GUACAGGAGAUCCCUUCUCACCCUCCAGCUCUGCAAACCGUGUCUCAUGUUUCACAGCGUUCCUGUUUUUUCUCUCCCGCCACCCCCACCGGCAUUUCCUUCUUCCACCA: 0.563
AAGCGAAUUAAAACACAACAAAAAACCCCACCCCACAACCUUCAGGACAGUCUAUCUUAAAUUUCAUAUGAGAACUCCUUCCUCCCUUUGAAGAUCUGUCCAUAUUCAGG: 1.19
GCCCUGCACUAGACACCCGACCCUUACUAGCCACCAGCCUUAAUUAAACACGGCCUUGGCCUAAGGCCUGGCUGGCUAGUGCUCUGAGUGACUCUAUUUUCCCUGAGCUU: 0.235
UUUCAUUGUCACACCAAAUAACCAGUUGGACAAUAUUGCAUUUUCAAAAUGGAGAGUUAUUUAAAGUGGAUGUGUAGCCUUCUGGAAUCUGCACGUGACUGGCAUUUUAA: 2.91
UGGACCUUGUGGCCAGGUGCUCUUCCCGAGCCACAGGUGUUCUGUGAGCUUGCUUGUGUGUGUGUGCGCGUGUGCGUGUGUUGCUCCAAUAAAGUUUGUACACUUUCUGA: 0.448
UUCAUUCUCAGGACCAAGGGAAACUGUCUUGCCUGUCCUCCUAUCUCCUCCCUUUCAGCAUCCUUUGGGGAACCUCCAGCCCAAGGCACUGUUAGGCUUGGGCAUUAGCC: 3.99
AAGAGUGCAGAGCUCUCCCCAGCCCCGUGGGUGGUGACUUUGUUUUCCUGCGGGGCUCAGCCCCCUCCAGGAUGCAGCCCCCUCCCCCGCACCCCGGAACCGGCGUCGCU: 0.222
AAGGCAGAGGGGAGCUUGAGGGACAAUGCCACUAUAGUUUAAUACUCAGAGGGGGUUGGGUUUGGGGACAUAAAGCCUCUGACUCAAACUCCUCCCUUUUAUCUUCUAGC: 0.408
GGAUGGGUGGGGUGCGCUUCUUUAUACCAGGAGCACGUGGCUCUUUCUGACCUUUGGCCUGUUCUAGUGCCUAAUCUCCAUUAUUAAAUACUGGCUUCUCCCAACUUCCU: 0.212
UACUCAAAGCUCACAUCAUAGGCCGUGCGUUCGCUGGAGGGGGCCCUGGUCUUGGCGCUUCCCUGAUGGACAGAGCUCAAGUUCCAUUUAUAUUAACCGCCACCUGUGGA: 0.4
AUAACUUUGUAAAAAGCAUGUAUGUAUUUAUAGUGUUUUAGAUUUUUCUAACUUUUAUAUCUUAAAAGCAGAGCACCUGUUUAAGCAUUGUACCCCUAUUGUUAAAGAUU: 4.05

Series 3 — technique: universal PBM; molecule type: double-stranded DNA, one strand shown; matrix: in vitro; concentration: 600 nM; reading: higher = stronger binding; quantity: E-score
Target: Sal-like protein 4, full length isoform A (SALL4, Homo sapiens, UniProt Q9UJQ4, residues 1-1053)
Chain of UniProt Q9UJQ4 (whole entry, looked up): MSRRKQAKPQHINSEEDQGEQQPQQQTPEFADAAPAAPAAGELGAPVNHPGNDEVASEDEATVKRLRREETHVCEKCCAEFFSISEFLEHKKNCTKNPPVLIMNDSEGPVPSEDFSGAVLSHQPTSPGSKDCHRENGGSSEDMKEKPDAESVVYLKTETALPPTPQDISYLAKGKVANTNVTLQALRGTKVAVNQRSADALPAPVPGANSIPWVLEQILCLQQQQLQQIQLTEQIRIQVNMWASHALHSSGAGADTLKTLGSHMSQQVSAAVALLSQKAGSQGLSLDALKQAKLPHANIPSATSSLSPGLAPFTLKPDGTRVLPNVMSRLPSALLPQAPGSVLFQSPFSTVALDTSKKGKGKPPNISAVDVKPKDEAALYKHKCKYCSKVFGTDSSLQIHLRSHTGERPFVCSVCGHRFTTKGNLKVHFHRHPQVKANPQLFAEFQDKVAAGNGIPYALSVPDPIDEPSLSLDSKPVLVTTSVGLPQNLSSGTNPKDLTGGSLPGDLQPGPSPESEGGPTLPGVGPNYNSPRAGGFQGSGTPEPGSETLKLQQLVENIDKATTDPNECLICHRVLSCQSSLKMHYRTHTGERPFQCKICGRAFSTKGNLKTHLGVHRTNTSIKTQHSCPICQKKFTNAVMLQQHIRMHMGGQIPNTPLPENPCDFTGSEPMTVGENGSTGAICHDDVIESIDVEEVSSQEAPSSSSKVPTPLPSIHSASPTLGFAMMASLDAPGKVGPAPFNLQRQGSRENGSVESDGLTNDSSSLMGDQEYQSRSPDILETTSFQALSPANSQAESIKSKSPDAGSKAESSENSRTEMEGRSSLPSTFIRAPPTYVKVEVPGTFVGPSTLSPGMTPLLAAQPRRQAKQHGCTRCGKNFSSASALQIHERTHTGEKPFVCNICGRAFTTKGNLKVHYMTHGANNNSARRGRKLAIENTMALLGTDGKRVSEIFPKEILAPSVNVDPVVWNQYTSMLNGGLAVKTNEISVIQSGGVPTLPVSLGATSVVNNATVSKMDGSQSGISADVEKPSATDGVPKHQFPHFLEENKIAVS
Setting: 8-mer, flanks averaged, mean of replicates
GTTCCTGA: -0.0957
GAATGTGA: 0.11
AGAGCGAG: -0.189
AAATCGGT: 0.0406
AAGTAGGA: 0.0748
CTACTGAC: -0.0746
GAGCCACA: -0.123
ACAAGCGA: -0.00761
AAGTTTGC: 0.0518
ACTGTCAC: 0.121
CGATAGCG: -0.0287
CATAGACA: 0.0944
GCGAGCAA: -0.196
GATCGAAA: 0.118
GAAACCAA: -0.0112
CTGTATCC: 0.141
ACAGACAT: 0.214
CCAATAAA: 0.251
CTAAAATC: 0.0611
AACTAGGC: -0.0926
CACAAAAC: 0.0513

Series 4 — target: CRIPT, C-terminal peptide; technique: DHFR complementation, deep sequencing; matrix: yeast; reference: wild type; reading: higher = weaker binding; quantity: binding free energy change
Setting: single substitutions, model-inferred values
Starting sequence: ERBIN, PDZ domain 1 (human); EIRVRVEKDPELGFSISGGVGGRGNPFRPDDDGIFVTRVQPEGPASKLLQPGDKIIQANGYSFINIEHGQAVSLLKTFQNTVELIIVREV; partner TKNYKQTSV
V87H: 0.0192 kcal/mol
L48E: 0.119 kcal/mol
E67H: 0.221 kcal/mol
L49A: -0.208 kcal/mol
L12R: 0.992 kcal/mol
P41R: 0.251 kcal/mol
D32M: 0.248 kcal/mol
K8S: 0.88 kcal/mol
K76M: 0.432 kcal/mol
V20A: -0.171 kcal/mol
R38M: 0.0178 kcal/mol
V6A: 0.488 kcal/mol
R28Y: -0.00806 kcal/mol
A71H: 1.31 kcal/mol

Series 5 — target: TEF, bZIP domain (human); technique: DHFR protein complementation; matrix: yeast; reference: wild-type JUN-FOS pair; reading: higher = stronger binding; quantity: binding fitness
Setting: single substitutions, most at no-binding floor
Starting sequence: JUN, bZIP domain (human); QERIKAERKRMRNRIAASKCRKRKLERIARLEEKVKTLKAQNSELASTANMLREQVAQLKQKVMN; partner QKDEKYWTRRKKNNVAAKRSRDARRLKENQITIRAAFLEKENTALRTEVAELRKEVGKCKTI
N42H: -1.57 natural log
Q55S: -1.46 natural log
V35M: -1.46 natural log
L52D: -1.51 natural log
T48M: -1.1 natural log
A49W: -1.59 natural log
N42S: -1.48 natural log
I28D: -1.48 natural log
R53H: -1.6 natural log
K36S: -1.45 natural log
A49L: -1.31 natural log
S43H: -1.48 natural log
L31A: -1.45 natural log
E54D: -1.36 natural log

Series 6 — target: CCNE2, cyclin fold, Cln2 fusion (human); technique: yeast growth competition, sequencing; matrix: yeast; setting: weak parent motif; reference: not given; reading: higher = stronger binding; quantity: normalised enrichment score
Starting sequence: HASPIN docking peptide (human); ASLRSVLFGLMNS
AALRSVLFGLMNS [S2A]: 0.231
ASLASVLFGLMNS [R4A]: -0.29
ASLRSVLAGLMNS [F8A]: 0.16
ASLRSVLFGLMAS [N12A]: 1.1
ASLRAVLFGLMNS [S5A]: 0.711
ASLRSVLFGAMNS [L10A]: 0.996

Series 7 — technique: DHFR PCA, deep sequencing; matrix: yeast; together with: (+)-ABA 0.11 µM; reference: wild-type fitted maximum; reading: higher = stronger binding; quantity: relative binding score
Target: ABI1, truncated, D143A, DHFR fusion (Arabidopsis thaliana)
Setting: methotrexate growth selection, single substitutions
Starting sequence: PYL1, truncated, DHFR fusion (Arabidopsis thaliana); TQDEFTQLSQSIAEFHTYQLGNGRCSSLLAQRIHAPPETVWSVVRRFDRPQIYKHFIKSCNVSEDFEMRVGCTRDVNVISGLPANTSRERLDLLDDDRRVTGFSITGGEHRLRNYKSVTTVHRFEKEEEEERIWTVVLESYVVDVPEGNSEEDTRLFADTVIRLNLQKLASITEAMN
E38Y: 4.18%
L29E: -1%
V40N: -11.7%
Q7R: 18.2%
V78D: 7.59%
L8R: -0.422%
N85H: 62.1%
A30H: 16.5%
H122G: -0.398%
Y18C: 2.93%
S87W: 31.5%
D153Q: -0.742%
R32S: 12.3%
G107A: 19%
S26T: 38.4%
V137E: -1.63%
L82N: 12.9%
L164T: 26.2%
E147F: 15.5%
H16G: 1.18%
E14T: 8.28%
A13V: 11%
F47T: 0.173%
T86Y: 33.8%
I52A: 42%

Repeated from above (series 7):
H16G: 1.18%
T86Y: 33.8%
E147F: 15.5%
E14T: 8.28%
V78D: 7.59%
F47T: 0.173%
L164T: 26.2%
I52A: 42%
L29E: -1%
